# Published values collected from several papers.
# Each numbered part is a random draw from the data of one study; scales do not carry over between parts.
# UniProt P22607, sequence (whole entry, looked up): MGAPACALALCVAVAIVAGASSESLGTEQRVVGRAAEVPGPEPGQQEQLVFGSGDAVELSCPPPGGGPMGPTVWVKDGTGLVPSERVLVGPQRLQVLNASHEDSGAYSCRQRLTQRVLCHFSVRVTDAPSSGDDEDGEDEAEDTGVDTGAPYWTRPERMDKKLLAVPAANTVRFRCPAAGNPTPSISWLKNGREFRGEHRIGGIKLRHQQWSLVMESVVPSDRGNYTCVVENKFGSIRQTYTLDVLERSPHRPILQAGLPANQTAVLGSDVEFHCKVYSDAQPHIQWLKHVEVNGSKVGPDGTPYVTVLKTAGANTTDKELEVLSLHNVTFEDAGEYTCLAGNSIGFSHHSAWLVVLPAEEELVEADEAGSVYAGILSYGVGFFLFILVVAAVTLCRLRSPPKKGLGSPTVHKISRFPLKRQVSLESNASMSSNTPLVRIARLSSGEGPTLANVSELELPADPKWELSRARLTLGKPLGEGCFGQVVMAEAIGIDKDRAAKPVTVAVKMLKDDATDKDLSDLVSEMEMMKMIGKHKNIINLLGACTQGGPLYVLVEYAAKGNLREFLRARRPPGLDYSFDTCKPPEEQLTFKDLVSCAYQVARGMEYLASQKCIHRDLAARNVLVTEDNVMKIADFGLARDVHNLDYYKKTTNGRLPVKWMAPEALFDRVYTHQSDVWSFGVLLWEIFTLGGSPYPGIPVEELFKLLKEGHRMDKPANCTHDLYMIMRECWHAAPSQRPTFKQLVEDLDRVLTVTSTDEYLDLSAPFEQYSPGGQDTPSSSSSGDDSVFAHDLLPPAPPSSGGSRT
# UniProt P25098, sequence (whole entry, looked up): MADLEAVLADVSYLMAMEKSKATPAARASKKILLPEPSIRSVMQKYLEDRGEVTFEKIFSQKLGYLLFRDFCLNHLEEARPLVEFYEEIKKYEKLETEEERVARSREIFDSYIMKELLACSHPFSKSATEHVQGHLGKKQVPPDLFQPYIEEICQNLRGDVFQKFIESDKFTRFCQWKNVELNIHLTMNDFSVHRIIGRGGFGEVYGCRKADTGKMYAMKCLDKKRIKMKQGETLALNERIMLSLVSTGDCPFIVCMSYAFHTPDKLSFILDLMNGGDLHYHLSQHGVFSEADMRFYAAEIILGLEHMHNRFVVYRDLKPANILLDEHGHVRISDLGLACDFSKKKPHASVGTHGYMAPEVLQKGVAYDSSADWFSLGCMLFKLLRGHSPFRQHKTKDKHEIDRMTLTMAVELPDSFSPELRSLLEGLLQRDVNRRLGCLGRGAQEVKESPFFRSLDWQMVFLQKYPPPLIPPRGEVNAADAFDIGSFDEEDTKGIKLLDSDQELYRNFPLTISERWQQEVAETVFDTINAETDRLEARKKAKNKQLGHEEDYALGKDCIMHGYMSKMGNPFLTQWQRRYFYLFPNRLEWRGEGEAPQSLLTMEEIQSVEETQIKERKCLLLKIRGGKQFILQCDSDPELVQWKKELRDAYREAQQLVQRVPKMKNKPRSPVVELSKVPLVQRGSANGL
# UniProt Q8IYT8, sequence (whole entry, looked up): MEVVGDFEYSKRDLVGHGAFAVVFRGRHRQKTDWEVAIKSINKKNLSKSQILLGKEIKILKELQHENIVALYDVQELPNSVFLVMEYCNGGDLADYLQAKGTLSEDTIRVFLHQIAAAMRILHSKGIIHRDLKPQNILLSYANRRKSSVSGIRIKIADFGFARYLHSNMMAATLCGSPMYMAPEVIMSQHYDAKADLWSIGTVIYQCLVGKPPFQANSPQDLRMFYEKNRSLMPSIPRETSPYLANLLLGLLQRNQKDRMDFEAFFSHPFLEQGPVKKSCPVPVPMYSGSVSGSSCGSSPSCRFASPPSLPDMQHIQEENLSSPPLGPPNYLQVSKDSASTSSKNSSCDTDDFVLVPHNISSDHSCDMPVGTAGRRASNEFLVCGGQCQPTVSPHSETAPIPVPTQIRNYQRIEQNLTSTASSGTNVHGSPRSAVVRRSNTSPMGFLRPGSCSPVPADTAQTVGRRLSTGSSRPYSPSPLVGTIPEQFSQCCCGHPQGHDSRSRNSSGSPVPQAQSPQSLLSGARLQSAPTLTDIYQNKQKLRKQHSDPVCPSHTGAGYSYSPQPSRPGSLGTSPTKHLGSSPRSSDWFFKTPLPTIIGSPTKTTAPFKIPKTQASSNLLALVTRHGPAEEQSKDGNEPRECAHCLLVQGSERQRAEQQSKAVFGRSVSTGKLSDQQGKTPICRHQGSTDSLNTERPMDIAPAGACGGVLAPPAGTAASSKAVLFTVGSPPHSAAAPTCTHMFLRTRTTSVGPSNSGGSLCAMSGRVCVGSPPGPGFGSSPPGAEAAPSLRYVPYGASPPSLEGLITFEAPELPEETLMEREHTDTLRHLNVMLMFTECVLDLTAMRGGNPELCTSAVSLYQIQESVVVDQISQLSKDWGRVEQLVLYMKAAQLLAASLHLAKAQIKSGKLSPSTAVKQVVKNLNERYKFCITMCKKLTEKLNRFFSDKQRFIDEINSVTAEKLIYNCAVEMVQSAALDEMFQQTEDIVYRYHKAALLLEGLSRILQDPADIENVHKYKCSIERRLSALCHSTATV
# UniProt Q92918, sequence (whole entry, looked up): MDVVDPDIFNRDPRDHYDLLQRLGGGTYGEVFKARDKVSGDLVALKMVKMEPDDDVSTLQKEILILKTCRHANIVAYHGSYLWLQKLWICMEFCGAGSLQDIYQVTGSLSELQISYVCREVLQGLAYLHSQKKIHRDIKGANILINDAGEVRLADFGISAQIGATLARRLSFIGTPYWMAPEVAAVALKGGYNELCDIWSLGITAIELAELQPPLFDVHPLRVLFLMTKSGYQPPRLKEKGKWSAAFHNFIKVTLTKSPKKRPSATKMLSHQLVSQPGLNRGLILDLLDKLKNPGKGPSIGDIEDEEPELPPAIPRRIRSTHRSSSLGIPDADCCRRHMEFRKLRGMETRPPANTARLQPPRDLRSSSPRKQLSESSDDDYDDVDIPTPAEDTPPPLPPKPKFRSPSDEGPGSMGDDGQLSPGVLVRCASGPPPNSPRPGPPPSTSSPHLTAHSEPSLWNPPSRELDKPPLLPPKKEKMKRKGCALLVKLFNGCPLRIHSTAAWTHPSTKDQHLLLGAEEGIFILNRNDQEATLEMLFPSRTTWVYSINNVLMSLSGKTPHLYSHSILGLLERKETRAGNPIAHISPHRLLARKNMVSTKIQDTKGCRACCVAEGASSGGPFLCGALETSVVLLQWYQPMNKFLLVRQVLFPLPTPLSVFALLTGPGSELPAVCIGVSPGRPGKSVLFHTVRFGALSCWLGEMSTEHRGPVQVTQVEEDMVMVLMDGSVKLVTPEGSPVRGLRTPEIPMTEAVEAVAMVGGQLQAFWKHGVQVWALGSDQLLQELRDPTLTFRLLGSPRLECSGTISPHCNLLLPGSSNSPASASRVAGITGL
# UniProt Q9Y6M4, sequence (whole entry, looked up): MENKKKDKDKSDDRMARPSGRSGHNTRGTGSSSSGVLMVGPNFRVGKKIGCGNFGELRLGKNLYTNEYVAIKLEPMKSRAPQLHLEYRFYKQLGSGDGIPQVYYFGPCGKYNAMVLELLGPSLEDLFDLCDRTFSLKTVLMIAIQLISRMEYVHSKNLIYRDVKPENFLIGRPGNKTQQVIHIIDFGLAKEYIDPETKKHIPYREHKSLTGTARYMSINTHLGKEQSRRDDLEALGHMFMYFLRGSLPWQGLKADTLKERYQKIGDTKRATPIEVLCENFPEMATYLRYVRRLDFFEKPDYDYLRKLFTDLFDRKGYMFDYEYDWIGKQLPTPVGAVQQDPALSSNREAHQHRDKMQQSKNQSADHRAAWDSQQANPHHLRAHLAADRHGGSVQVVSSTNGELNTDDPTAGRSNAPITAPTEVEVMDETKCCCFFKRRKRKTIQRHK
# UniProt P27361, sequence (whole entry, looked up): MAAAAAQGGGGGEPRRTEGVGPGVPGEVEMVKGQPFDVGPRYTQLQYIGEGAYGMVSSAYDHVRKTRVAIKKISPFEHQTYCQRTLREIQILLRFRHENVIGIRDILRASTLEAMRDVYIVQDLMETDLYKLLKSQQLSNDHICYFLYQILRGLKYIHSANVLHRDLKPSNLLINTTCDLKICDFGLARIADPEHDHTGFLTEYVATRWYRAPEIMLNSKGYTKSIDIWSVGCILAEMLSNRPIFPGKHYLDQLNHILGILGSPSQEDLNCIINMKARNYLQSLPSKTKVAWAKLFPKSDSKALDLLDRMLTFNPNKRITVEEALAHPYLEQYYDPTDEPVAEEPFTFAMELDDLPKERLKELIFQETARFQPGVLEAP
# UniProt P49841, sequence (whole entry, looked up): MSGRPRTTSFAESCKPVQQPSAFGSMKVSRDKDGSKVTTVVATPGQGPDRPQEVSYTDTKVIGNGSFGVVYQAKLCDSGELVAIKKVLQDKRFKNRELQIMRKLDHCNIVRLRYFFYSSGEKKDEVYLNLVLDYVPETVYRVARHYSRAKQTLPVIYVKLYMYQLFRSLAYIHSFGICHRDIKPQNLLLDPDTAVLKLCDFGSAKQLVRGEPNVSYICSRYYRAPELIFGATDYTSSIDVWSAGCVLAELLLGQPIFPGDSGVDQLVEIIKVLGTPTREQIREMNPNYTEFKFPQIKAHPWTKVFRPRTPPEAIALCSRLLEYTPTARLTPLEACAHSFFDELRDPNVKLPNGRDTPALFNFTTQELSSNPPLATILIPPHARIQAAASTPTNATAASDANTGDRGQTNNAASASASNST

# Set 1
# SMILES: COc1ccc2c(O[C@@H]3C[C@H]4C(=O)N[C@]5(C(=O)O)CC5/C=C\CCCCC[C@H](NC(=O)OC5CCCC5)C(=O)N4C3)cc(-c3csc(NC(=O)C(C)C)n3)nc2c1C (some centres unmarked)
# Observed: cell-free assay
# Method: competition with immobilised ligand
# Tested at: 1 µM
target,remaining binding
"Tyrosine-protein kinase ABL1, non-phosphorylated (ABL1, Homo sapiens, UniProt P00519, F317I)",90%
"GRK2 (Homo sapiens, UniProt P25098)",83%
"MAP4K1 (Homo sapiens, UniProt Q92918)",100%
"EPHB6 (Homo sapiens, UniProt O15197)",89%
"CHEK1 (Homo sapiens, UniProt O14757)",100%

# Set 2
# Target: Eukaryotic initiation factor 4A-I (EIF4A1, Homo sapiens, UniProt P60842, residues 1-406, full length assumed)
# UniProt P60842, sequence (whole entry, looked up): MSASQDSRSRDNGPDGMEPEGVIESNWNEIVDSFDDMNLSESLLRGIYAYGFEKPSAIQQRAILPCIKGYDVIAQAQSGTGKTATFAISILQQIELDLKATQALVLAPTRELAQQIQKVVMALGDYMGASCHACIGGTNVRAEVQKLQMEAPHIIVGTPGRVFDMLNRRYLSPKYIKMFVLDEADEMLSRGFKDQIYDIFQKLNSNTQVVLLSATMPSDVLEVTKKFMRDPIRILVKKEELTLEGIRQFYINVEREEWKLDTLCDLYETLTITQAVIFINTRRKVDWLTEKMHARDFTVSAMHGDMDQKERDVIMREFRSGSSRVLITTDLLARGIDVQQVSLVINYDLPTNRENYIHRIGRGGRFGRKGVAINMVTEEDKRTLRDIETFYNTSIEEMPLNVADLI
# Method: RNA Bind-n-Seq
# Form: RNA
# Medium: in vitro
# Tested at: 15 pmol
# Setting: 4-mer, random 30-nt RNA, single round
# With: 3 µM DMDA-PatA, 2 mM AMP-PNP
# Baseline: input library
# Direction: higher = stronger binding
Oligonucleotide,4-mer enrichment [fold]
GUUA,1.36
GAUU,1.2
CCGU,0.616
AGCG,1.1
UUAC,0.834
AAGG,1.09
CUAA,1.03
GGUC,0.864

# Set 3
# Target: Prothrombin, mature alpha-thrombin (F2, Homo sapiens, UniProt P00734)
# Method: aptamer microarray, sandwich
# Form: DNA with 2'F-ANA
# Medium: in vitro
# Tested at: 200 nM
# Setting: whole 15-mer aptamer, many near background
# With: Cy3 exosite-II aptamer, 400 nM
# Direction: higher = stronger binding
# Oligonucleotide: GGTTGGTGTGGTTGG
Modification,mean fluorescence intensity
2'F-ANA at 1 3 6 13,230 a.u.
2'F-ANA at 2 3 8 10 11 12 14 15,271 a.u.
2'F-ANA at 1 2 3 6 7 8 10 11 13 14 15,77.5 a.u.
2'F-ANA at 3 6 7 9 10 11 12 15,491 a.u.
2'F-ANA at 1 2 3 4 6 7 8 9 13 15,115 a.u.
2'F-ANA at 1 2 3 4 5 7 9 12 15,115 a.u.
2'F-ANA at 2 3 5 7 10 12 13 14,52.6 a.u.
2'F-ANA at 1 2 3 4 5 8 9 13 14 15,46.9 a.u.

# Set 4
# SMILES: CCCNC(=O)Nc1ccc(Oc2ncnc3cc(OC)c(OC)cc23)cc1Cl
# Observed: enzyme activity
# Action: inhibitor
# Tested at: 0.5 µM
# Baseline: control
target,remaining activity [%]
"RPS6KA2 (Homo sapiens, UniProt Q15349)",95.7
"ULK2 (Homo sapiens, UniProt Q8IYT8)",89.2
"FRK (Homo sapiens, UniProt P42685)",87.2
"FGFR3 (Homo sapiens, UniProt P22607)",84.5
"GSK3B (Homo sapiens, UniProt P49841)",91.3
"ULK3 (Homo sapiens, UniProt Q6PHR2)",80.7
"ACVR1B (Homo sapiens, UniProt P36896)",99.6
"MAP3K14 (Homo sapiens, UniProt Q99558)",109
"GRK7 (Homo sapiens, UniProt Q8WTQ7)",94.7
"MAPK3 (Homo sapiens, UniProt P27361)",105
"CSNK1G3 (Homo sapiens, UniProt Q9Y6M4)",105
"MST1R (Homo sapiens, UniProt Q04912)",89.3
"MAP2K2 (Homo sapiens, UniProt P36507)",99.8
"TAOK2 (Homo sapiens, UniProt Q9UL54)",94.5

# Excerpt of the above (set 4):
target,remaining activity [%]
"MAP3K14 (Homo sapiens, UniProt Q99558)",109
"GRK7 (Homo sapiens, UniProt Q8WTQ7)",94.7
"MAPK3 (Homo sapiens, UniProt P27361)",105
"CSNK1G3 (Homo sapiens, UniProt Q9Y6M4)",105
